{"data": "Assay results collected from several papers", "note": "Each line is one published result; not all experiments were run side by side. ± gives the spread as reported.", "UniProt Q05397, sequence (whole entry, looked up)": "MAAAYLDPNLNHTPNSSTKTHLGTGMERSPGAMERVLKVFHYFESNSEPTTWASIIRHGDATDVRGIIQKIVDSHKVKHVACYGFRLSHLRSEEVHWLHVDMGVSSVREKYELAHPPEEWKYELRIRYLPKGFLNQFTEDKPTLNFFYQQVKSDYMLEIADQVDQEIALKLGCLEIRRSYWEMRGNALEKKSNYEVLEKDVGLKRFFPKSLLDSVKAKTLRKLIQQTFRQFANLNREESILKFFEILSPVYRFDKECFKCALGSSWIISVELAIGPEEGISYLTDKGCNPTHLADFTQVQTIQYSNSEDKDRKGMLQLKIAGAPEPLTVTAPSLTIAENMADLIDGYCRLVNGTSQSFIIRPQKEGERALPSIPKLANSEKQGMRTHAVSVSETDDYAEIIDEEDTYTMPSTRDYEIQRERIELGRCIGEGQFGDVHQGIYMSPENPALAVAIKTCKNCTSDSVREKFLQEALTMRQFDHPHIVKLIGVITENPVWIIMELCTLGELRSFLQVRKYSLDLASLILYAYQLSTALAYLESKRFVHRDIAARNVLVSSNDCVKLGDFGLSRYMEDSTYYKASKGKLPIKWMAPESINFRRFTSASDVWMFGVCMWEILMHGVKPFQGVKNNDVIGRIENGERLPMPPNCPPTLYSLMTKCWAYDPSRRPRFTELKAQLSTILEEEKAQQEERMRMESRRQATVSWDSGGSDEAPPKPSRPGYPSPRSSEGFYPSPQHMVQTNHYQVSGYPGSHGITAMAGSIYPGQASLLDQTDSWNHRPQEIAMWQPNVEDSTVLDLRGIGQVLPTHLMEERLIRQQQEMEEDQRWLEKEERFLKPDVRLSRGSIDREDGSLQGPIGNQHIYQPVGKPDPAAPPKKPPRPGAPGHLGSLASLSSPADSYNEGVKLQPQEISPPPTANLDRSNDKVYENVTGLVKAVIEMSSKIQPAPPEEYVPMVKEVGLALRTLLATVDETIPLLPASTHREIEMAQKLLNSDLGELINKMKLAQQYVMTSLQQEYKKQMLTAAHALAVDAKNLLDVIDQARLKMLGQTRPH", "UniProt P10635, sequence (whole entry, looked up)": "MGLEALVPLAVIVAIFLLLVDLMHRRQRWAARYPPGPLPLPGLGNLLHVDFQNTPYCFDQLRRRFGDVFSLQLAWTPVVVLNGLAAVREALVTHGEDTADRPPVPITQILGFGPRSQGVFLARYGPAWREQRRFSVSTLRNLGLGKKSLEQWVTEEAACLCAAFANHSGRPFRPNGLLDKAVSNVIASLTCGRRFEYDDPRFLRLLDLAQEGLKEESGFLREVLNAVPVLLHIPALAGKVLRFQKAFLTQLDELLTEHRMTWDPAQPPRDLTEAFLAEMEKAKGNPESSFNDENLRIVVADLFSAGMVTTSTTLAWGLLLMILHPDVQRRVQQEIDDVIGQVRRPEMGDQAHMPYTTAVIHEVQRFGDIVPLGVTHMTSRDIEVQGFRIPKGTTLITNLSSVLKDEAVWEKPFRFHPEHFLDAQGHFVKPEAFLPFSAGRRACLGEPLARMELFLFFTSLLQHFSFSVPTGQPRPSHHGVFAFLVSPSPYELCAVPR", "UniProt P03372, sequence (whole entry, looked up)": "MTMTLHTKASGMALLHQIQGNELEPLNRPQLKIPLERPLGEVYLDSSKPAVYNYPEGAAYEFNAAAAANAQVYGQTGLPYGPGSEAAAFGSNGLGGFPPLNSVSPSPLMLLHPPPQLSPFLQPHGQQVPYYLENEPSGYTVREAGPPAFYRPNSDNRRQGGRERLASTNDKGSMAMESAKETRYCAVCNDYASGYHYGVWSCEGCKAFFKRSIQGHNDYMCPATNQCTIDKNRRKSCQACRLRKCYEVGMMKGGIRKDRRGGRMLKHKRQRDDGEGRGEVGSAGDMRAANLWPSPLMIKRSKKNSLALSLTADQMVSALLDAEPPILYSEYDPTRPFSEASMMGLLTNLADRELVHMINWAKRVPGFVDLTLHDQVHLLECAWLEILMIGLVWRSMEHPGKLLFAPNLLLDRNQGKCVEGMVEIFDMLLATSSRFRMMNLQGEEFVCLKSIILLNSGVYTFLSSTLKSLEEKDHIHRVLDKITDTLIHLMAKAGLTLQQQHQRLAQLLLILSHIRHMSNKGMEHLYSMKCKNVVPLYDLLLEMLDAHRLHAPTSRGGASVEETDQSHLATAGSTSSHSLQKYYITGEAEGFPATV"}
{"SMILES": "Cc1nn(-c2cccc(N)c2)c(=O)c2cnc(Nc3ccc(N4CCNCC4)cc3)nc12", "target or system": "Focal adhesion kinase 1 (PTK2, Homo sapiens, UniProt Q05397)", "test": "kinase activity, inhibitor, SelectScreen kinase profiling", "endpoint": "IC50", "result": "> 10000 nM"}
{"SMILES": "Nc1ncc(-c2cc(-c3cnn(CC(F)(F)F)c3)ncc2F)nc1C(=O)NC1CNCC(F)C1 (stereo not drawn)", "target or system": "ERK1", "test": "KINOMEscan competition binding", "conditions": "1 µM", "scale": "reference: DMSO control", "endpoint": "remaining binding", "result": "100%"}
{"SMILES": "C[n+]1ccc(/C=N/NC(=O)C(=O)N/N=C/c2cc[n+](C)cc2)cc1", "target or system": "myc22 MYC G4-DNA parallel", "test": "FRET melting", "conditions": "1 µM, K1 buffer, DNA 0.2 µM, together with: ds26 10 µM", "endpoint": "ΔTm", "result": "4.5 ± 0.5 °C"}
{"SMILES": "CCN(CC)CC#CCNc1ccnc2cc(Cl)ccc12", "target or system": "Salmonella typhimurium", "test": "mini-Ames test", "test system": "TA100", "conditions": "1000.0 µg/well, together with: rat liver S9", "endpoint": "revertant count", "result": "10 revertants/well"}
{"SMILES": "O=C(N/N=C/c1ccc(C[n+]2ccccc2)cc1)c1cncc(C(=O)N/N=C/c2ccc(C[n+]3ccccc3)cc2)n1", "target or system": "myc22 MYC G4-DNA parallel", "test": "FRET melting", "conditions": "1 µM, K1 buffer, DNA 0.2 µM", "endpoint": "ΔTm", "result": "10.1 ± 0.2 °C"}
{"SMILES": "C=CC(=O)Nc1cccc(Cn2ncc3cnc(Nc4cnn(CCOC)c4)nc32)c1", "target or system": "HCK human", "test": "binding, KINOMEscan", "conditions": "100 nM", "scale": "lower = stronger binding", "endpoint": "percent of control", "result": "100%"}
{"SMILES": "CC[C@H](C)[C@H](NC(=O)C[C@H](NC(=O)CN1CCN2CCN(CC1)CC(=O)[O][Al]([18F])[O]C(=O)C2)C(=O)O)C(=O)N[C@H]1CCc2cccc3c2N(C1=O)[C@H](C(=O)NCc1cn[nH]n1)C3", "target or system": "MC-38 tumour model", "test system": "host not given, brain", "conditions": "30 min, tumour-bearing", "endpoint": "tracer uptake", "result": "0.16 %ID/g"}
{"SMILES": "O=C1C2CC3CC1CC(C(=O)N1CCN(c4ccc([N+](=O)[O-])c5ncccc45)CC1)(C3)C2", "target or system": "Escherichia coli", "test": "Ames test", "test system": "WP2 uvrA pKM101", "conditions": "0.02 µg/well, without S9 activation", "endpoint": "revertant colony count", "result": "33 colonies/well"}
{"SMILES": "CNS(=O)(=O)Nc1nccc(Cc2c(C)c3ccc(Oc4ncccc4F)cc3oc2=O)c1F", "target or system": "UWB1289", "test": "cell viability", "conditions": "7 days", "endpoint": "IC50", "result": "> 1000 nM"}
{"SMILES": "C=C(NC(=O)c1csc(-c2nc3c(cc2O)-c2nc(cs2)C(=O)NC(C(C)O)C(=O)NC(=C(C)OC)c2nc(cs2)C(=O)NC2c4nc(cs4)C(=O)NC(COC(=O)c4c5c6c(cccc6n4O)COC(=O)C(OC4CC(C)(O)C(N(C)C)C(C)O4)C2OC5)c2nc-3cs2)n1)C(N)=O (stereo not drawn)", "target or system": "Streptococcus pneumoniae", "test system": "-4, immunocompromised mice, lung infection, lung", "conditions": "32 mg/kg/day once daily, 24 h post-dose", "endpoint": "bacterial load", "result": "4.78 log CFU/g"}
{"SMILES": "Cc1ncsc1-c1ccc(C(C)NC(=O)C2CC(O)CN2C(=O)C(NC(=O)CCCCCCCCCCN2CCCC(Nc3ncc(Cl)c(Nc4ccccc4S(=O)(=O)C(C)C)n3)C2)C(C)(C)C)cc1 (stereo not drawn)", "target or system": "22Rv1", "test": "RNA-seq, item: ZNF799 mRNA", "conditions": "concentration not given", "scale": "reference: DMSO", "endpoint": "log2 fold change", "result": -1.45}
{"SMILES": "C[n+]1cccc2cc(/C=N/NC(=O)c3cccc(C(=O)N/N=C/c4ccc5c(ccc[n+]5C)c4)c3)ccc21", "target or system": "myc22 MYC G4-DNA parallel", "test": "FRET melting", "conditions": "1 µM, K1 buffer, DNA 0.2 µM", "endpoint": "ΔTm", "result": "5.8 ± 0.4 °C"}
{"SMILES": "CC[C@@H]([C@@H](C)c1ccc(O)cc1)[C@@H](CC)c1ccc(O)cc1", "target or system": "Estrogen receptor (ESR1, Homo sapiens, UniProt P03372)", "test": "reporter gene, luciferase reporter (3xERE)", "test system": "293T", "conditions": "24 h", "endpoint": "EC50", "result": "2.85 nM"}
{"SMILES": "COC1CN([C@H]2CC[C@H]([C@@]3(C)Oc4c(Cl)cc(C(=O)NCc5c(SC)cc(C)[nH]c5=O)c(C)c4O3)CC2)C1", "test": "RNA-seq, item: DNAJB5", "test system": "human, whole blood", "conditions": "dose not given, 24 h", "scale": "reference: pretreatment baseline", "endpoint": "log2 fold change", "result": 1.32}
{"SMILES": "CN1CCCNC(=O)c2cccc(c2)C(=O)NCCCN(C)CCCNc2cccc3c2C(=O)c2cccc(c2C3=O)NCCC1", "target or system": "SAS", "test": "RNA-Seq, item: SLC26A11 mRNA", "conditions": "1 µM, 6 h", "scale": "reference: untreated cells", "endpoint": "log2 fold change", "result": 3.44}
{"SMILES": "COc1cc(O)ccc1CCC(c1ccc(O)cc1)c1cc2c(c(C)c1O)OC(c1ccc(O)cc1)CC2 (mixture of isomers)", "test": "item: TXB2", "test system": "human whole blood", "conditions": "3 µM, together with: Escherichia coli", "endpoint": "amount", "result": "30600 ± 15800 pg/mL blood"}
{"SMILES": "C[n+]1ccc(/C=N/NC(=O)c2ccc3ccc(C(=O)N/N=C/c4cc[n+](C)c5ccccc45)nc3n2)c2ccccc21", "target or system": "myc22 MYC G4-DNA parallel", "test": "FRET melting", "conditions": "1 µM, K1 buffer, DNA 0.2 µM", "endpoint": "ΔTm", "result": "23.1 ± 0.4 °C"}
{"SMILES": "CNC(=O)C1CCCN(C(=O)C2CC3CCC2N3C(=O)[C@@H]2C[C@@H](O)CN2C(=O)NCc2cccc(Cl)c2F)C1 (mixture of isomers)", "target or system": "Cytochrome P450 2D6 (CYP2D6, Homo sapiens, UniProt P10635)", "test": "enzyme activity, inhibitor, time-dependent inhibition", "conditions": "1.85 µM, preincubated with NADPH", "scale": "reference: negative control", "endpoint": "remaining activity", "result": "119%"}
{"note": "A few entries again:"}
{"SMILES": "COc1cc(O)ccc1CCC(c1ccc(O)cc1)c1cc2c(c(C)c1O)OC(c1ccc(O)cc1)CC2 (mixture of isomers)", "test": "item: TXB2", "test system": "human whole blood", "conditions": "3 µM, together with: Escherichia coli", "endpoint": "amount", "result": "30600 ± 15800 pg/mL blood"}
